Measurements from different studies.
Parts stem from different laboratories: compare values within a part only. Substitutions count along the parent as printed.
Sequence of UniProt P49459 (whole entry, looked up): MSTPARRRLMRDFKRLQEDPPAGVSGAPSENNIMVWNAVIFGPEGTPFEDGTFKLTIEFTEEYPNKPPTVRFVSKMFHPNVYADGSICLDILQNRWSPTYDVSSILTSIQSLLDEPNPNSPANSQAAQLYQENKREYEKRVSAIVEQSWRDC
Sequence of UniProt P61077 (whole entry, looked up): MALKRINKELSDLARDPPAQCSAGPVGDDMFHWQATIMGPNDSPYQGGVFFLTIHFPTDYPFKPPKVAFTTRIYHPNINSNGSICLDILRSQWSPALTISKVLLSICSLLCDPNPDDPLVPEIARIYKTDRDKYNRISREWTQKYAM
Sequence of UniProt Q96B02 (whole entry, looked up): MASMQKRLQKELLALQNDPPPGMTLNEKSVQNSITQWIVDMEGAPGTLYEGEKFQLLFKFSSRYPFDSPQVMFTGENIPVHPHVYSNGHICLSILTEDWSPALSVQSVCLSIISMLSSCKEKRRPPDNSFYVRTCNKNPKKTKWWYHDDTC

Block 1
Molecule: B1 (RNF187 RING domain)
Technique: yeast two-hybrid
Medium: yeast
Notes: mostly zero background
Relative to: not given
Reading: higher = stronger interaction
B1: RNF187 RING domain (UniProt Q5TA31); chain ALPAGPAEAACALCQRAPREPVRADCGHRFCRACVVRFWAEEDGPFPCPECADDCWQRAVEP
target	lacZ reporter activity
UBE2W UBC core domain (UniProt Q96B02)	0
UBE2A UBC core domain (UniProt P49459)	0
UBE2D3 UBC core domain (UniProt P61077)	0

Block 2
Target: CCNE1, cyclin fold, Cln2 fusion (human)
Technique: yeast growth competition, sequencing
Medium: yeast
Notes: strong parent motif
Relative to: not given
Reading: higher = stronger binding
Starting sequence: viral docking peptide; KGVKRKLFAEDSS; partner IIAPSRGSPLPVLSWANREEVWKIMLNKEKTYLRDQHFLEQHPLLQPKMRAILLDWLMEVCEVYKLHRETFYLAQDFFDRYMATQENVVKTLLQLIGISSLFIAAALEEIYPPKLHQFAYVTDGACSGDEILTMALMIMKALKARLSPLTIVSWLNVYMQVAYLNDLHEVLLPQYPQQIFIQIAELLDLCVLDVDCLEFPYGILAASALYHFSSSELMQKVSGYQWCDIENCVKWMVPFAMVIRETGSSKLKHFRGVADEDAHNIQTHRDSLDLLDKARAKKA
Variant	normalised enrichment score
KGVKQKLFAEDSS [R5Q]	1.15
KGVKRKLFADDSS [E10D]	7.74
KGVKRKLFAEHSS [D11H]	6.79
KGVYRKLFAEDSS [K4Y]	3.44

Block 3
Partner: ARF20 484-590 (Arabidopsis thaliana, UniProt Q9C7I9)
Technique: two-hybrid
Relative to: out of 4 tests
Reading: higher = firmer interaction
B2: ARF16 570-670 (Arabidopsis thaliana, UniProt Q93YR9); chain SPCSKKVHDASGLETGHCKVFMESDDVGRTLDLSVLGSYEELSRKLSDMFGIKKSEMLSSVLYRDASGAIKYAGNEPFSEFLKTARRLTILTEQGSESVVV
B3: ARF6 790-935 (Arabidopsis thaliana, UniProt Q9ZTX8); chain SENPQSNTFVKVYKSGSFGRSLDISKFSSYHELRSELARMFGLEGQLEDPVRSGWQLVFVDRENDVLLLGDDPWPEFVSSVWCIKILSPQEVQQMGKRGLELLNSAPSSNNVDKLPSNGNCDDFGNRSDPRNLGNGIASVGGSFNY
B4: ARF18 482-602 (Arabidopsis thaliana, UniProt Q9C5W9); chain QKKQQTSRSRTKVQMQGIAVGRAVDLTLLKSYDELIDELEEMFEIQGQLLARDKWIVVFTDDEGDMMLAGDDPWNEFCKMAKKIFIYSSDEVKKMTTKLKISSSLENEEYGNESFENRSRG
B5: ARF19 948-1086 (Arabidopsis thaliana, UniProt Q8RYC8); chain GLWPNQTQRMRTYTKVQKRGSVGRSIDVTRYSGYDELRHDLARMFGIEGQLEDPLTSDWKLVYTDHENDILLVGDDPWEEFVNCVQNIKILSSVEVQQMSLDGDLAAIPTTNQACSETDSGNAWKVHYEDTSAAASFNR
B6: IAA26 (Arabidopsis thaliana, UniProt Q8LAL2); chain MEGCPRNREIGPKLLDLIPQGRKWYQEDKNNTDQEKKLELRLGPPGGDEEDHSAIKKKNTEIRNIKKETEDKSFHCFNGNHFSPSNKTTSVPHISQKRTAPGPVVGWPPVRSFRKNLASTSSSKLGNESSHGGQINKSDDGEKQVETKKEGMFVKINMDGVPIGRKVDLNAYNSYEQLSFVVDKLFRGLLAAQRDISDGQGEEKPIIGLLDGKGEFTLTYEDNEGDKMLVGDVPWQMFVSSVKRLRVIKSSEISSALTFGCSKQEKMMH
B7: ARF10 575-693 (Arabidopsis thaliana, UniProt Q9SKN5); chain LQGLETGHCKVFMESEDVGRTLDLSVIGSYQELYRKLAEMFHIEERSDLLTHVVYRDANGVIKRIGDEPFSDFMKATKRLTIKMDIGGDNVRKTWITGIRTGENGIDASTKTGPLSIFA
B8: IAA16 (Arabidopsis thaliana, UniProt O24407); chain MINFEATELRLGLPGGNHGGEMAGKNNGKRGFSETVDLKLNLSSTAMDSVSKVDLENMKEKVVKPPAKAQVVGWPPVRSFRKNVMSGQKPTTGDATEGNDKTSGSSGATSSASACATVAYVKVSMDGAPYLRKIDLKLYKTYQDLSNALSKMFSSFTIGNYGPQGMKDFMNESKLIDLLNGSDYVPTYEDKDGDWMLVGDVPWEMFVDSCKRIRIMKGSEAIGLAPRALEKCKNRS
B9: IAA31 (Arabidopsis thaliana, UniProt Q8H174); chain MEVSNSCSSFSSSSVDSTKPSPSESSVNLSLSLTFPSTSPQREARQDWPPIKSRLRDTLKGRRLLRRGDDTSLFVKVYMEGVPIGRKLDLCVFSGYESLLENLSHMFDTSIICGNRDRKHHVLTYEDKDGDWMMVGDIPWDMFLETVRRLKITRPERY
Construct (chain): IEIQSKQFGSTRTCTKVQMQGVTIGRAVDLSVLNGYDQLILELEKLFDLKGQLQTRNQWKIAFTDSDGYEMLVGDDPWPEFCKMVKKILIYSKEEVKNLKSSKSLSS
Molecule	positive tests
B2 (ARF16 570-670)	1
B3 (ARF6 790-935)	2
B4 (ARF18 482-602)	1
B5 (ARF19 948-1086)	2
B6 (IAA26)	0
B7 (ARF10 575-693)	0
B8 (IAA16)	0
B9 (IAA31)	3

Mixed results
Molecule	target	effect on	form	concentration	measurement	value
IDDVTIKI	Mamu-B*01 macaque	peptide-MHC binding	peptide	concentration not given	binding	inactive

Repeated from above (block 3):
Molecule	positive tests
B2 (ARF16 570-670)	1
